Experimental data pooled from the literature.
A part holds a random share of what one study measured. Positions count from the first letter of the parent shown.

Block 1
Target: Histone acetyltransferase KAT6A, winged helix 2, GST fusion (KAT6A, Homo sapiens, UniProt Q92794, residues 85-181)
Technique: protein binding microarray
Molecule type: double-stranded DNA, one strand shown
Sample: in vitro
Tested at: not given
Notes: 8-mer, flanks averaged, mean of 2 arrays, mostly near background
Reference: not given
Reading: higher = stronger binding
Residues (chain): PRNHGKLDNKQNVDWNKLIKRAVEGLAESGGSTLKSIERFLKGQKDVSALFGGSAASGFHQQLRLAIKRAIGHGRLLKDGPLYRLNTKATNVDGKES
Oligonucleotide	E-score
CAACGAGG	0.109
GATCCGGA	0.154
AGGTGCTC	-0.175
TTGTCAAA	0.0634
CTTTAGTA	-0.0405
AAAGTGCG	0.0422
ACGACGCA	0.119

Block 2
Target: RING finger protein unkempt homolog, zinc fingers 1-6, SBP tag (UNK, Homo sapiens, UniProt Q9C0B0, residues 30-357)
Chain of UniProt Q9C0B0 (30-357, looked up): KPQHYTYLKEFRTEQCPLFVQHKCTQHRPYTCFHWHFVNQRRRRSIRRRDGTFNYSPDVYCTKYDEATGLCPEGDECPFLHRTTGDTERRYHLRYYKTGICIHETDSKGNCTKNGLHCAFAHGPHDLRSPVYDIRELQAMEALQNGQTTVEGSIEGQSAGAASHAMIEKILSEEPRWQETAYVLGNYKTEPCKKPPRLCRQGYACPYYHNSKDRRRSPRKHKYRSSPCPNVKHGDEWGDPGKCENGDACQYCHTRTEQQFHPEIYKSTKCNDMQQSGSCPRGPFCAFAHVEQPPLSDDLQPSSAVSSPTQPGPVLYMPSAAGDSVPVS
Technique: RNA Bind-n-Seq
Molecule type: RNA
Sample: in vitro
Tested at: 100 nM
Notes: RNA with constant flanks, vertebrate orthologous sites, ends assumed
Reference: input RNA pool
Reading: higher = stronger binding
All sequences stand within: GGGAGUUCUACAGUCCGACGAUC … CAACAGAGGAUUGAGCAUCA
Oligonucleotide	bound/input enrichment [ratio]
UUCAGGUACAACGGACUGGUUCCCAGCAUUCCUUACACAGUUAUUUAUCAAGUACAAGUGUAGUUAAUUUUCAGGAUACAUCCAGGCAGUCAGCAUUAUCUUGCAGUCCAGUUGGAGAUG	0.913
UCCUCAACUUGUUCUAGCUUGUGAUCCUUCAAAGUUGGGUCAUACGUUAGUGCUAGAUACUAGAAAUUGUCACUUUUCCACUGAUCAGAGAGACAGACAUUAAAAACAAAAAUAGAAGAA	1.43
ACCUCCAAUAGGCUAAUUCAGGGAAAGGAAACAGGCUUCAGGGAAUAUAAAUUAAUAUAGUAGUAGUCAUGAAGAAUAACUUUGAUAUAACUGAUUUGGGGGAGUGAUGGCAACUUGUGA	1.38
AAGGAGCAGCAUAGACUGUUUGAGCUUUGGGGAAAUGAGCUUUUGCUUUUUGUAUUUAAAUAGGAUACUUUUAUAUGAUGGGUGCUUUUGAGUGUGAACGCAGCAGGCUCUCCAUUUCAG	1.25
AUGCAUUUUUACAAUCUACUUAACUGGGAUUUUCAAACAAUAGGAAGCUUUUUUUUUUUUUUUACAGUUUGGUUUCUACGUGGAGGACUAAAUUAAUGCUUCUAGCUACAUGUGGUCUUU	0.932
UCUCUCGCUUAACUGUGUCCAAAGUUGCUAUGAGGAUUGGAAACAUUCAUUAGUUUCAUGUAGAACUACACUGGCAGGUGCUCAAUUCCCAUCAUAGCAAGAUCAAAAACCAUCACAGUG	0.917
AUUCAAACCUGUGGUGCCUUGGCCUCACGUGGAGGGAGUAGAAGUGGAUUUGGAGUCGAUCCGCAGGAAAAACAAGGCCAAAAAUGAACAAGAGCUUCAAGCUGGGAAUGAGAACCAGCA	0.449
UUGUUUCUAUCGGUAUCAGAUUGCAUUUACACACCCGCUGAAACUCUCCUUAAUUUUAUCUUUAGAAACAGAACCAGUAAUACUUCAGUAGUUGAGCUUUUUAAUAUGUUAAAGCUAAUA	0.606
AAGCCCUAGUUCUUGAACCAACACCCGUAAAAGAUUUAGAAAAAAGUUUACAACAUAAUCUAGUUUACCGAAGACGCCUUGUGCUAGAAUACUUUUUAAAAAGUAUUUUUGAAUACCAUU	0.672
GUCAUCUGACUGGAUGAAGACUGUUCCUAGUUAUAACCAAACAAAUAGCUCCAUGGACUUUAGAAAUUAUGUGAUGAGAGAUGAAAAUUUGGAACCACUCCCCAAAAACUGGGAAAUGGC	1.54
UGUGCUCAUAUAUAGCAGUUAGAGUGGGUUGCCCCUCUACUCCCAAGAAGAAAUCCCAGAUAGCUUCCUUUCAUGUCGGAUUAUACUGUUCUGAUUUUACUUUCUAUUAUUUUUACUUAU	1.19

Block 3
Target: Ras GTPase-activating protein-binding protein 1, full length (G3BP1, Homo sapiens, UniProt Q13283)
Chain of UniProt Q13283 (whole entry, looked up): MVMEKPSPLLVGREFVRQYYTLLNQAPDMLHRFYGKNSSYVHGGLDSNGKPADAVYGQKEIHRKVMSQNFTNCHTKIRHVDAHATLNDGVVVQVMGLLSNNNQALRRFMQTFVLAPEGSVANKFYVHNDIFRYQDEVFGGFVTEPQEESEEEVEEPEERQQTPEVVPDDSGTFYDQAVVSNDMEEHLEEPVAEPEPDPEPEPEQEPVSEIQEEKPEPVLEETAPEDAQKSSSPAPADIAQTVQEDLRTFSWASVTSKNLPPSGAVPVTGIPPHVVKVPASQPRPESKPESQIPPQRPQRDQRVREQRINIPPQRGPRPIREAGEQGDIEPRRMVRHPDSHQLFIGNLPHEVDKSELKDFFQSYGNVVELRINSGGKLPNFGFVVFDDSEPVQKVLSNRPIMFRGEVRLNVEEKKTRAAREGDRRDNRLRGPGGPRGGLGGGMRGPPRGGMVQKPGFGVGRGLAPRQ
Technique: RNA Bind-n-Seq
Molecule type: RNA
Sample: in vitro
Tested at: 200 nM
Notes: whole 134-nt RNA, ends assumed
Added: 150 mM KCl
Reference: input library
Reading: higher = stronger binding
All sequences stand within: GGGAGUUCUACAGUCCGACGAUC … UGGAAUUCUCGGGUGUCAAGG
Oligonucleotide	log2 enrichment
UUUCUCCACAGGAGCCCCGCAAGUGAGCCAGCCACUGCGAGAGCAGAGUGAGGAUAUACCUGGAGCCAUUUCCUCUGCCCUGGCAGCCAU	0.713
UUUUUUGUAGUAGGGAGAUCCUUGAUCAUCAGGAUGGUAAUGUAGAAGAUGAUGGGCUUACAGGACUCCUAAGGCUUGCAACAAGUGUUG	0.759
UGCUGGCAGCCAAGCAGCAGCAGGAGAUGCUGGCAGCCAAGCGGCAGCAGGAGCUGGAGCAGCAGCGGCAGCGGGAGCAGCAGCGGCAGG	-0.871
ACCAUGCAGGUGGGCAUCUUUGGGAAGUGGGGCAAGGGGGGGAUAGGGACGGGGGUAACACUUUGGGAACAGGUGGUCCCAGGUCGUUUC	1.28
CACAGACAACACGCACCCACACAGACACAGAGGGAAGGGGUUGGGAUGGGGACGGGGUGCACAGCAGGGCGGGGUAGGACCCCAGCCCCU	1.88
UGGGAGGUGGAUUUUGUUUAUUUUUUUAGCUCAUUUCCAGGGGUGGGAAUUUUUUUUUAAUAUGUGUCAUGAAUAAAGUUGUGUUUGAAA	0.39
GCAGGAAGUAAAAACAAAUGGAAAUGCUUCGGAUACUGGCAGGGGUGGGGGUUGCUAAGGAAAGGGUGGGAUGGGAGUGGGUAAAGAGUU	0.939
GUCCUGUGCUACACAUCGUAUGUACCGAAUCGGGGUUUUUUUGGGGUUUGGGGUGGGGAAAGUAUUAUGUUACGCCGUUCGGAUCUGCAC	0.239
AGUCCUGUGCUACACAUCGUAUGUACCGAAUCGGGGUGGGGAAAAAAAGGGGAGGGGAAAGUAUUAUGUUACGCCGUUCGGAUCUGCACU	0.754

Block 4
Target: CCNB2, cyclin fold, Cln2 fusion (human)
Technique: yeast growth competition, sequencing
Sample: yeast
Notes: strong parent motif
Reference: not given
Reading: higher = stronger binding
Starting sequence: BRCA2 docking peptide (human); PSIKRNLLNEFDR; partner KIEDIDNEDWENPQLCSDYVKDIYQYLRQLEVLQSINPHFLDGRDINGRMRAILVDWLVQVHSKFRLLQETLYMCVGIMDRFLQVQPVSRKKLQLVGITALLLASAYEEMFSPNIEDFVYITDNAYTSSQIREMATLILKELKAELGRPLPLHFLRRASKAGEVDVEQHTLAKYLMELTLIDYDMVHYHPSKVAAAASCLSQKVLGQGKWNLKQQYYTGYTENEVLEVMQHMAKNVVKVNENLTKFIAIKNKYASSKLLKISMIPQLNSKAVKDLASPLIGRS
Substitution	normalised enrichment score
PSIKRNLWNEFDR [L8W]	1.32
PSIKRNLLNEFDD [R13D]	4.38
PSIKRNLLNEWDR [F11W]	0.61
PSIKSNLLNEFDR [R5S]	0.406
PSIKRNLLNHFDR [E10H]	0.986
PSIKRNLLQEFDR [N9Q]	3.79
PSIKRQLLNEFDR [N6Q]	1.25
PSCKRNLLNEFDR [I3C]	3.4
ESIKRNLLNEFDR [P1E]	4.18
PSIPRNLLNEFDR [K4P]	0.912
PSIKANALNEFDR [R5A L7A]	0.184
PSSKRNLLNEFDR [I3S]	0.805
PSIKRNLLEEFDR [N9E]	3.77
PSIKRKLLNEFDR [N6K]	1.54
PSIKRNLLNEVDR [F11V]	0.69
PSIKRNRLNEFDR [L7R]	0.409
PSIKRNLLDEFDR [N9D]	4.12
PSIQRNLLNEFDR [K4Q]	2.09
PSIKRELLNEFDR [N6E]	0.934
PSIKRNHLNEFDR [L7H]	-0.082
PSIIRNLLNEFDR [K4I]	2.2
PSIKRNLLAEFDR [N9A]	4.26
PSIKRNLLNESDR [F11S]	-0.498
PSIVRNLLNEFDR [K4V]	3.71
PSIKRNLLYEFDR [N9Y]	4.47

A few entries again (block 4):
Substitution	normalised enrichment score
PSCKRNLLNEFDR [I3C]	3.4
ESIKRNLLNEFDR [P1E]	4.18
PSIPRNLLNEFDR [K4P]	0.912
PSIKANALNEFDR [R5A L7A]	0.184
PSSKRNLLNEFDR [I3S]	0.805
PSIKRNLLEEFDR [N9E]	3.77
